Measured values from different studies.
A part holds a random share of what one study measured.
Sequence of UniProt Q8N752 (whole entry, looked up): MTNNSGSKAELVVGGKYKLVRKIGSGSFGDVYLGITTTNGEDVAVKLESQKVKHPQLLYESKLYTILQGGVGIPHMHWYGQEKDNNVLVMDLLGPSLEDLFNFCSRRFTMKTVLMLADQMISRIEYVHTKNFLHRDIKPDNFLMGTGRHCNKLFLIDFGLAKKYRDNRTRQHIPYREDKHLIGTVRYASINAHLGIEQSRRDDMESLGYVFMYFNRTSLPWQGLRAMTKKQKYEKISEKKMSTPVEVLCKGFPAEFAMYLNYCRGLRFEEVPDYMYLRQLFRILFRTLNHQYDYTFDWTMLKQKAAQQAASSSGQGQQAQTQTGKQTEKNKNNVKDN
Sequence of UniProt Q9HC98 (whole entry, looked up): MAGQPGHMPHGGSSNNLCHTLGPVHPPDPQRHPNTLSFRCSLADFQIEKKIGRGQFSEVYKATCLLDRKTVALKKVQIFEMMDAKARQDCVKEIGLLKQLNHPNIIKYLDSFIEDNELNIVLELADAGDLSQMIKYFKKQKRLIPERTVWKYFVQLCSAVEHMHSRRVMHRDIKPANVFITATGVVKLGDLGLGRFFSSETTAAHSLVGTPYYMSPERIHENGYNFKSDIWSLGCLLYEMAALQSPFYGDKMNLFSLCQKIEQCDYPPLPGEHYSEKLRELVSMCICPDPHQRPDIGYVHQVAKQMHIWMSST
Sequence of UniProt Q12866 (whole entry, looked up): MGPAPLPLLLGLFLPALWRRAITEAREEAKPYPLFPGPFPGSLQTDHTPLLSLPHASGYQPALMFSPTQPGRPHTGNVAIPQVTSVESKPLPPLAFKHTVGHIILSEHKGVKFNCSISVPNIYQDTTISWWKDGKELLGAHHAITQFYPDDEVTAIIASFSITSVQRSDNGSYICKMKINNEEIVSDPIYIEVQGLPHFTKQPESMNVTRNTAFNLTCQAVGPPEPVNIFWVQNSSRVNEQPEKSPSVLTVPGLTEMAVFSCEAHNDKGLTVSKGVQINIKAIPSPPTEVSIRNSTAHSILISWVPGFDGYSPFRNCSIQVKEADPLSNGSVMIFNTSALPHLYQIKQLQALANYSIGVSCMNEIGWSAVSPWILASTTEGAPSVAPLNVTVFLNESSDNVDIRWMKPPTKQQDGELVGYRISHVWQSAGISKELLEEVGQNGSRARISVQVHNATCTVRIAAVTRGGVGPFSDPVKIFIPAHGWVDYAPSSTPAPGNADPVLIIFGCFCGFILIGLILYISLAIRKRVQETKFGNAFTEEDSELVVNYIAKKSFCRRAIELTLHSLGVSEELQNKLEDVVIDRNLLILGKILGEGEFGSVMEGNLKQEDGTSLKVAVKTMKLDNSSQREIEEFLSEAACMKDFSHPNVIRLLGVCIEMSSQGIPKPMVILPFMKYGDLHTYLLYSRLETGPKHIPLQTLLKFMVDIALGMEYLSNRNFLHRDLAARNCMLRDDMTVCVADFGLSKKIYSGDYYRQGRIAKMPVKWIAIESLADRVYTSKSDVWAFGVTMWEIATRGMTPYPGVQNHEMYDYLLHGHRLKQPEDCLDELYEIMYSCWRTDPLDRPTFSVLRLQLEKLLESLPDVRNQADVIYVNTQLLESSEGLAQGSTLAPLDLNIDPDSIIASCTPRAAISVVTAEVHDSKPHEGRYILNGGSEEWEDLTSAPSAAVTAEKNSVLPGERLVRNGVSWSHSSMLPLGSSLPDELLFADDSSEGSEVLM
Sequence of UniProt Q04912 (whole entry, looked up): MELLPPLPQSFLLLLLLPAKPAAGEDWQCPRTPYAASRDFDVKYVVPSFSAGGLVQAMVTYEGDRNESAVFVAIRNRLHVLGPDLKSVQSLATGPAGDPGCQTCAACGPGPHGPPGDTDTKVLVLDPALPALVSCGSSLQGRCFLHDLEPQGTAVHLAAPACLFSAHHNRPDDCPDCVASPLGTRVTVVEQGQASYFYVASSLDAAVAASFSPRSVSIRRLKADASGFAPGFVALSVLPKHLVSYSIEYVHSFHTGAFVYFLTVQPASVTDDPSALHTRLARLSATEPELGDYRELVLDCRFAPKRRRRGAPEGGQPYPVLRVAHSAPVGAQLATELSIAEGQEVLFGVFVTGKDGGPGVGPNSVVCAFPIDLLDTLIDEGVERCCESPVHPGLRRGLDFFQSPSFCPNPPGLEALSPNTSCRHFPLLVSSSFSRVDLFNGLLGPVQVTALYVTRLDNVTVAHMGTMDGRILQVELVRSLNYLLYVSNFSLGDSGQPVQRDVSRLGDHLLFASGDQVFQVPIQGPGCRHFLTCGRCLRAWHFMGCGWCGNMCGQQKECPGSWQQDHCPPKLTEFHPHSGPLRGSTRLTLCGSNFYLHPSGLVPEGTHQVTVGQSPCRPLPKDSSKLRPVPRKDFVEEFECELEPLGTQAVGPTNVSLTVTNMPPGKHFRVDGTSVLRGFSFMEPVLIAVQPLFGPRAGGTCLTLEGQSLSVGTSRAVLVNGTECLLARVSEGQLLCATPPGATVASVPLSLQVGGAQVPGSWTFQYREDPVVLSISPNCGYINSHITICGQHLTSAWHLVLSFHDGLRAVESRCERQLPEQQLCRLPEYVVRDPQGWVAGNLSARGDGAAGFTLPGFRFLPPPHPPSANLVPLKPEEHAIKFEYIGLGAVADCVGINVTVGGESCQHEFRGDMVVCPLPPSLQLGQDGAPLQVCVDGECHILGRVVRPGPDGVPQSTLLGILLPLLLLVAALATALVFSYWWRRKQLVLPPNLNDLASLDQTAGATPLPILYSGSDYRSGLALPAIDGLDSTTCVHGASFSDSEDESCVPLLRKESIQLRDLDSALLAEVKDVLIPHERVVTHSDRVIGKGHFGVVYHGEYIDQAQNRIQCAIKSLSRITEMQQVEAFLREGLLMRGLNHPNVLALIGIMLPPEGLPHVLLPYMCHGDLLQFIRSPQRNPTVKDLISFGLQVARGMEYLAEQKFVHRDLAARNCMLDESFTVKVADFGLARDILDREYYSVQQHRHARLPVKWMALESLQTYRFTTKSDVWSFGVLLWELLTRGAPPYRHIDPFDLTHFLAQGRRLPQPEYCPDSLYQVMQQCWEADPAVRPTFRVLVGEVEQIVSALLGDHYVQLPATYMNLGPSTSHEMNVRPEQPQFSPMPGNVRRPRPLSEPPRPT
Sequence of UniProt Q16659 (whole entry, looked up): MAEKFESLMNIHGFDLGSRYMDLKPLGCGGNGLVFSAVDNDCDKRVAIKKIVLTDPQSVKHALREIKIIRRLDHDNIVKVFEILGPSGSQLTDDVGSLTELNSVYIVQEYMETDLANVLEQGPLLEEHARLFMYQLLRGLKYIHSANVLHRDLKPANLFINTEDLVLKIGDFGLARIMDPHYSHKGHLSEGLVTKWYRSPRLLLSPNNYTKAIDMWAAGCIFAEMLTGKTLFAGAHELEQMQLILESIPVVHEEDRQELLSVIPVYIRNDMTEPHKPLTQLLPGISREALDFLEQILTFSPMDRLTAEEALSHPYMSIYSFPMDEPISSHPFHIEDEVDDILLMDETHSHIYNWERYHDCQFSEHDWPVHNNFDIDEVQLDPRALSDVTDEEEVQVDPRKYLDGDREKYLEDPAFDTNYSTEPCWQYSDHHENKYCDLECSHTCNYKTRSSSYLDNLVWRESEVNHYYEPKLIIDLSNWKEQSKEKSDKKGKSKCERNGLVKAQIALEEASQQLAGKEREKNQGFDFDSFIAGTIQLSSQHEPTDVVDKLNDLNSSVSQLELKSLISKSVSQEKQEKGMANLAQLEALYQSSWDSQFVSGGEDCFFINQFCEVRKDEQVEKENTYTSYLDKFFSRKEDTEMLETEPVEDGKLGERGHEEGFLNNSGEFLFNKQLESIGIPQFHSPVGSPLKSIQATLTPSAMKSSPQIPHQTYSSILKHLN
Sequence of UniProt Q9H1R3 (whole entry, looked up): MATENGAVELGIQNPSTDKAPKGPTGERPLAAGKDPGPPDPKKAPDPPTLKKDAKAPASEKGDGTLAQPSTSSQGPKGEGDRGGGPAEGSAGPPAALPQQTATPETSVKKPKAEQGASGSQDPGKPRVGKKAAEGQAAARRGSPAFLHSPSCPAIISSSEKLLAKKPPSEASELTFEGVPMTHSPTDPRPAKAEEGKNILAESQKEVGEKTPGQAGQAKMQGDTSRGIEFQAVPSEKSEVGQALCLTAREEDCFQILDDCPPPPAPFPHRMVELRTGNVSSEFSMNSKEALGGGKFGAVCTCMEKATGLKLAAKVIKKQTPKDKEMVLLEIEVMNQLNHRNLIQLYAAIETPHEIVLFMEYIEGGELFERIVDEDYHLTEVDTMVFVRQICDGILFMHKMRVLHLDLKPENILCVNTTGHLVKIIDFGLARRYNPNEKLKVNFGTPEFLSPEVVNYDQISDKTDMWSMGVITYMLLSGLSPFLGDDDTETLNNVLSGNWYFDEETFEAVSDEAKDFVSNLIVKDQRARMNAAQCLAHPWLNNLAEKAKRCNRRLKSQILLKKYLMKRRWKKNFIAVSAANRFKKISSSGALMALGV

Series 1
Target: PABPC1L2, full length, GST fusion (mouse, UniProt A0ABA7IW68)
Technique: RNAcompete
Molecule type: RNA
Medium: in vitro
Tested at: 20 nM
Setting: 7-mer, probes averaged, single round
Relative to: mean of 7-mers
Direction: higher = stronger binding
Measurement: 7-mer Z-score
Target sequence (chain): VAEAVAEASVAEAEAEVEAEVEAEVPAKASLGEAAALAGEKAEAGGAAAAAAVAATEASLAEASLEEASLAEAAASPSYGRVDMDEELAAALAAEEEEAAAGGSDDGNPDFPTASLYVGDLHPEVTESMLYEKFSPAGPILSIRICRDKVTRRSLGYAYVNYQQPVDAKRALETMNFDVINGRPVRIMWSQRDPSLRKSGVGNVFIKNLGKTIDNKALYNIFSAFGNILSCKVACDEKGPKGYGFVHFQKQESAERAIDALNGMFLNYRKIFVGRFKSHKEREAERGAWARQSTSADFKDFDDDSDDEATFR
AAAUCCC: 0.249
CCGCAAA: 0.62
GAUCGUC: -0.394
UCCAUGA: -0.166
UAUGGCA: 0.000733
AGUGGCG: 0.187
GCCGUGG: -0.124
CCUAAAA: 3.52

Series 2
Structure (SMILES): Cc1nc2cc3nc(-c4cccs4)cnc3cc2n1C
Observed: enzyme activity
Action: inhibitor
Tested at: 0.5 µM
Relative to: control
Measurement: remaining activity
Tyrosine-protein kinase Mer (MERTK, Homo sapiens, UniProt Q12866): 90.4%
Mitogen-activated protein kinase 3 (MAPK3, Homo sapiens, UniProt P27361): 117%
Tyrosine-protein kinase Lck (LCK, Homo sapiens, UniProt P06239): 86.3%
Tyrosine-protein kinase FRK (FRK, Homo sapiens, UniProt P42685): 98.9%
Serine/threonine-protein kinase Nek6 (NEK6, Homo sapiens, UniProt Q9HC98): 99.2%
Serine/threonine-protein kinase TBK1 (TBK1, Homo sapiens, UniProt Q9UHD2): 93%
Mitogen-activated protein kinase kinase kinase 5 (MAP3K5, Homo sapiens, UniProt Q99683): 98.9%
Tyrosine-protein kinase ABL2 (ABL2, Homo sapiens, UniProt P42684): 100%
Fibroblast growth factor receptor 1 (FGFR1, Homo sapiens, UniProt P11362): 88.8%
Macrophage-stimulating protein receptor (MST1R, Homo sapiens, UniProt Q04912): 107%
Mitogen-activated protein kinase kinase kinase 14 (MAP3K14, Homo sapiens, UniProt Q99558): 97.4%

Series 3
Target: Ras GTPase-activating protein-binding protein 1, full length (G3BP1, Homo sapiens, UniProt Q13283)
Sequence of UniProt Q13283 (whole entry, looked up): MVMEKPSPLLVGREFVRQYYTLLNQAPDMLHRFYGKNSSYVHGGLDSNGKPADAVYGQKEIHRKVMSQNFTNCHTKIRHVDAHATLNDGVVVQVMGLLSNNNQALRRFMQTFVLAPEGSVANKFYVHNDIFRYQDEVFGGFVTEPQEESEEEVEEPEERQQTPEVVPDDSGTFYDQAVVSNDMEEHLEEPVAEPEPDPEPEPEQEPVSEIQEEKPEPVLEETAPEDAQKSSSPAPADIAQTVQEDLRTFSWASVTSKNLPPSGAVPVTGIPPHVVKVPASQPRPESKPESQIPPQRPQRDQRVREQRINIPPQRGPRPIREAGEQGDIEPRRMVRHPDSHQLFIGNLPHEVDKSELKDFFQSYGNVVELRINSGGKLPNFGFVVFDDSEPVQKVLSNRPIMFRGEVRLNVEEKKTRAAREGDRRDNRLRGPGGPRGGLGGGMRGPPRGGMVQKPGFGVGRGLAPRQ
Technique: RNA Bind-n-Seq
Molecule type: RNA
Medium: in vitro
Tested at: 200 nM
Setting: whole 134-nt RNA, ends assumed
Added: 150 mM KCl
Relative to: input library
Direction: higher = stronger binding
Measurement: log2 enrichment
Constant ends, left off below: GGGAGUUCUACAGUCCGACGAUC … UGGAAUUCUCGGGUGUCAAGG
UGGCCCUGGUGGCAUGCGGGGAGGAAGAGGUGGCCUCAUGGAUCGUGGUGGUCCCGGUGGAAUGUUCAGAGGUGGCCGUGGUGGAGACAA: 0.102
AGUCCUGUGCUACACAUCGUAUGUACCGAAUCGGGGCCCCCGGCCCCCGGCCCCCGGGAAAGUAUUAUGUUACGCCGUUCGGAUCUGCAC: -0.988
UGGCAUGGAUCCAGUGGGCUGAGACCACCCUCAUUCAGCGGGAUCAGGAGCCAAUCCCGCAGAACAUUGACCGAGUUAAAGCCCUUAUCG: -0.999
CCUCAAGUCCUGUGCUACACAUCGUAUGUACCGAAUCGGUGGUUUGGUUUGGAAAGUAUUAUGUUACGCCGUUCGGAUCUGCACUUCCAG: -0.366
AAGUCCUGUGCUACACAUCGUAUGUACCGAAUCGGGGUUUGGGGAGGGGAAAGGGGAAAGUAUUAUGUUACGCCGUUCGGAUCUGCACUU: 0.607
CAAGUCCUGUGCUACACAUCGUAUGUACCGAAUCGGGAAAGGGAAAGGGGAAAGGAAAGUAUUAUGUUACGCCGUUCGGAUCUGCACUUC: -0.232
CACAGACAACACGCACCCACACAGACACAGAGGGAAGGGGUUGGGAUGGGGACAGGGUGCACAGCAUGGCGGGGUAGGACCCCAGCCCCU: 1.77
GUCCUGUGCUACACAUCGUAUGUACCGAAUCGGGGUUUGGGGUGGGGAAAAAAAGGGGAAAGUAUUAUGUUACGCCGUUCGGAUCUGCAC: 0.274

Series 4
SMILES: O=C(N[C@H]1CCCCC/C=C\C2C[C@@]2(C(=O)O)NC(=O)[C@@H]2C[C@@H](Oc3ccncc3)CN2C1=O)OC1CCCC1 (stereo partly shown)
Technique: competition with immobilised ligand
Tested at: 1 µM
Measurement: remaining binding
Serine/threonine-protein kinase NLK (NLK, Homo sapiens, UniProt Q9UBE8); binding: 100%
Mitogen-activated protein kinase 6 (MAPK6, Homo sapiens, UniProt Q16659); binding: 92%
Calcium/calmodulin-dependent protein kinase type II subunit delta (CAMK2D, Homo sapiens, UniProt Q13557); cell-free assay: 87%
Phosphatidylinositol 4,5-bisphosphate 3-kinase catalytic subunit alpha isoform (PIK3CA, Homo sapiens, UniProt P42336, H1047L); binding: 100%
Vascular endothelial growth factor receptor 2 (KDR, Homo sapiens, UniProt P35968); cell-free assay: 100%
Casein kinase I isoform alpha-like (CSNK1A1L, Homo sapiens, UniProt Q8N752); binding: 100%
Myosin light chain kinase 2, skeletal/cardiac muscle (MYLK2, Homo sapiens, UniProt Q9H1R3); binding: 100%
Receptor-type tyrosine-protein kinase FLT3 (FLT3, Homo sapiens, UniProt P36888, D835V); binding: 92%
Mitogen-activated protein kinase 7 (MAPK7, Homo sapiens, UniProt Q13164); binding: 90%
Epidermal growth factor receptor (EGFR, Homo sapiens, UniProt P00533, L858R/T790M); cell-free assay: 98%
Receptor tyrosine-protein kinase erbB-2 (ERBB2, Homo sapiens, UniProt P04626); binding: 100%
Serine/threonine-protein kinase 4 (STK4, Homo sapiens, UniProt Q13043); binding: 100%
Cyclin-dependent kinase 11A (CDK11A, Homo sapiens, UniProt Q9UQ88); binding: 88%
Cyclin-dependent kinase-like 2 (CDKL2, Homo sapiens, UniProt Q92772); binding: 100%
Dual specificity protein kinase CLK2 (CLK2, Homo sapiens, UniProt P49760); binding: 100%
Serine/threonine-protein kinase STK11 (STK11, Homo sapiens, UniProt Q15831); binding: 85%

Excerpt of the above (series 2):
Tyrosine-protein kinase Lck (LCK, Homo sapiens, UniProt P06239): 86.3%
Tyrosine-protein kinase ABL2 (ABL2, Homo sapiens, UniProt P42684): 100%
Mitogen-activated protein kinase kinase kinase 14 (MAP3K14, Homo sapiens, UniProt Q99558): 97.4%
Macrophage-stimulating protein receptor (MST1R, Homo sapiens, UniProt Q04912): 107%
Tyrosine-protein kinase Mer (MERTK, Homo sapiens, UniProt Q12866): 90.4%
